Assay results gathered from unrelated publications.
Each numbered part is a random draw from the data of one study; scales do not carry over between parts.

Study 1
Target: Sal-like protein 4, full length isoform B (SALL4, Homo sapiens, UniProt Q9UJQ4-2, residues 1-616)
Method: universal PBM
Form: double-stranded DNA, one strand shown
Sample: in vitro
Concentration: not given
Notes: 8-mer, flanks averaged, mean of replicates
Direction: higher = stronger binding
Quantity: E-score
Construct (chain): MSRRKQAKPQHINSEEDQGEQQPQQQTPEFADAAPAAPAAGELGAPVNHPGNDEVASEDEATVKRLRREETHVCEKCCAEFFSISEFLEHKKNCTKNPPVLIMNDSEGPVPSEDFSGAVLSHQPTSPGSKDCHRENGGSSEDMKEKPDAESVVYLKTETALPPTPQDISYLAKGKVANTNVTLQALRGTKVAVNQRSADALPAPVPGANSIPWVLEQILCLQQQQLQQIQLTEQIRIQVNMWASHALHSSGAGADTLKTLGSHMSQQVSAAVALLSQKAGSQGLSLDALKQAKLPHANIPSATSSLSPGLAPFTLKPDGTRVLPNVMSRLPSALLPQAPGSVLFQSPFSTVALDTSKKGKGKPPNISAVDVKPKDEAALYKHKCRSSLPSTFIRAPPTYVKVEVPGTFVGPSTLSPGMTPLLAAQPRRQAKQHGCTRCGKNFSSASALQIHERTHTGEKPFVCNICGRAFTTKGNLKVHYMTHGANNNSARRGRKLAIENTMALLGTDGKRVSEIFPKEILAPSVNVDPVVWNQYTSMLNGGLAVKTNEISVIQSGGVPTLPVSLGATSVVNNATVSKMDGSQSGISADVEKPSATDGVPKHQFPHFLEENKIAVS
GGTGGGAC: -0.137
AACCCTAT: 0.0186
AACATGCT: 0.0419
GGAAAGTA: 0.157

Study 2
Target: Phosphate system positive regulatory protein PHO4, full length, GST-tagged (PHO4, Saccharomyces cerevisiae, UniProt P07270, residues 1-312)
Method: competition protein-binding microarray
Form: double-stranded DNA, one strand shown
Sample: in vitro
Concentration: 2 µM
Notes: whole 60-bp probe, lowest competitor level
Together with: Cbf1 competitor, 0.05 µM
Direction: higher = stronger binding
Quantity: fluorescence intensity
Residues (chain): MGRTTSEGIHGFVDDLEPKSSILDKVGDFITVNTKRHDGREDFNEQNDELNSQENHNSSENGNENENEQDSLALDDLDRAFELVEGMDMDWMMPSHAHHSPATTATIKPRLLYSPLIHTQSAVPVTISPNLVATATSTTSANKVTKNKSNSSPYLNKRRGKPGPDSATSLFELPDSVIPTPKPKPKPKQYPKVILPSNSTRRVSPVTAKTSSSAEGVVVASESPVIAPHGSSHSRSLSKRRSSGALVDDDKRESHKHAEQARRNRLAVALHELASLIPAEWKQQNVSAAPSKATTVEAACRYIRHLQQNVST
TCCCATGCAAACAAGCATGTGATATCATTGCCAAGTGTCTTGATTCGCTTGACGCTGCTG: 10500 a.u.
CGTCCTAGCGATTGACGTGTGGGTGCCATGAGGAAGGTCTTGATTCGCTTGACGCTGCTG: 8450 a.u.
GGTGCGCCATTATCGGTTGTGATGAACTACTGGTTGGTCTTGATTCGCTTGACGCTGCTG: 3950 a.u.

Study 3
Target: Ras GTPase-activating protein-binding protein 1, full length (G3BP1, Homo sapiens, UniProt Q13283)
UniProt Q13283, sequence (whole entry, looked up): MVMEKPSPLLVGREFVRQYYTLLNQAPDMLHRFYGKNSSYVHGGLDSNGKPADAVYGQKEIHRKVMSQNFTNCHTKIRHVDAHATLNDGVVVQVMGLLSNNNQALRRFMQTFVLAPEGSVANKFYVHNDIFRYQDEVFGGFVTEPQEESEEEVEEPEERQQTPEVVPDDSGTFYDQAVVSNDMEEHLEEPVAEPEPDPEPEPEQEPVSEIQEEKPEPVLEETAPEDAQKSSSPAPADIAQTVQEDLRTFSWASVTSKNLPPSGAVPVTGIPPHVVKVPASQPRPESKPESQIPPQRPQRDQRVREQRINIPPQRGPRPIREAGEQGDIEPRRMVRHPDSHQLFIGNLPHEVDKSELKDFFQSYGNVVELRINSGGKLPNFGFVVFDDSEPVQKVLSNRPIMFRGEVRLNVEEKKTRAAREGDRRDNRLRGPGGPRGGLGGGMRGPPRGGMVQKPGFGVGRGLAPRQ
Method: RNA Bind-n-Seq
Form: RNA
Sample: in vitro
Concentration: 200 nM
Notes: whole 134-nt RNA, ends assumed
Together with: 150 mM LiCl
Relative to: input library
Direction: higher = stronger binding
Quantity: log2 enrichment
Each molecule: 7-deaza-guanosine replaces G
GGGAGUUCUACAGUCCGACGAUCGUCCUGUGCUACACAUCGUAUGUACCGAAUCGGGGAAAAAGGGGAAAAAGGAAAAAGGGAAAGUAUUAUGUUACGCCGUUCGGAUCUGCAUGGAAUUCUCGGGUGUCAAGG: 0.0646
GGGAGUUCUACAGUCCGACGAUCAGUCCUGUGCUACACAUCGUAUGUACCGAAUCGGGAAAAGGGAAAAGGGGAAAAGGGGAAAGUAUUAUGUUACGCCGUUCGGAUCUGCACUGGAAUUCUCGGGUGUCAAGG: 0.238
GGGAGUUCUACAGUCCGACGAUCUCCUGUGCUACACAUCGUAUGUACCGAAUCGGGGCCCCCGGGGCCCCCGGGGCCCCCGGGAAAGUAUUAUGUUACGCCGUUCGGAUCUGCUGGAAUUCUCGGGUGUCAAGG: -0.0682

Further values, each from its own experiment
PhoQ, residues 284 288 289 292 302 303 SCCLKL
fold induction (PhoP, residues 12 14 15 18 19 FWNTL (Escherichia coli, UniProt P23836); Sort-seq, measured: YFP reporter; E. coli; PhoQ-PhoP variant library, together with: 10 µM Mg2+; relative to: high Mg2+ state, higher = stronger signaling): 11.1

For quick reference, copied from above (study 1):
AACATGCT: 0.0419
